Published values collected from several papers.
Protocols differ between the studies behind these lines.
Route: oral

| SMILES | test | test system | conditions | measurement | value |
| --- | --- | --- | --- | --- | --- |
| CNC(=O)c1cc(Oc2ccc(NC(=O)Nc3cc(C(C)(C)C)nn3-c3ccc4ncccc4c3)c(F)c2)ccn1 |  | patients | dose not given, cycles 1 and 2, Medium Cmax subgroup | patients with cardiac disorders | 7% |
| C=CC(=O)NC1CCN(c2ncc3ncnc(Nc4ccc(Oc5ccc6c(c5)ncn6C)c(C)c4)c3n2)CC1 |  | male patients | dose not given, on-treatment adverse events | patients with abdominal discomfort | 0% |
| C[C@@H](Nc1cc(F)cc(F)c1)c1cc(C(=O)N(C)C)cc2c(=O)cc(N3CCOCC3)oc12 | measured: Hypersensitivity | advanced solid tumour patients | dose not given, dose expansion | patients discontinuing for AE | 0% |
| C[C@@H](c1ccc2nccn2c1)n1nnc2ncc(-c3cnn(C)c3)nc21 | measured: treatment-related grade ≥3 Nausea | EGFR-mutant MET-altered NSCLC | dose not given, all | patients with adverse events | 3% |
| CNC(=O)c1ccc(-c2cnc3ncc(Cc4ccc5ncccc5c4)n3n2)cc1F | measured: Insomnia | gastric cancer patients | 600 mg twice daily, expansion cohort, grade 3-4 | patients with adverse event | 0% |
| Cc1cc(NC2CCN(C(=O)OC3CCN(C(=O)/C=C/CN(C)C)C3)CC2)n2ncc(C(C)C)c2n1 (stereo not drawn) | CTCAE v4.0, measured: Dyspnea | patients with advanced solid tumours | dose not given, all schedules, grade 3 or higher | patients with TEAE | 6% |
| FC(F)(F)c1ccc(CNc2ccc(Cc3c[nH]c4ncc(Cl)cc34)cn2)cn1 | measured: at least 1 adverse event | non-TGCT solid tumour patients | 1000 mg/day, all grades | patients with treatment-related adverse event | 87% |
| O=C(Nc1nc2cccc(-c3ccc(CN4CCS(=O)(=O)CC4)cc3)n2n1)C1CC1 |  | rheumatoid arthritis patients | 100 mg twice daily, 4 weeks, regardless of relatedness | patients with first-degree AV block | 0% |
| COc1cc(Nc2ncc3c(n2)-c2ccc(Cl)cc2C(c2c(F)cccc2OC)=NC3)ccc1C(=O)O | measured: Anorexia, all grades | cancer patients, phase 1/2 | dose not given, added: pembrolizumab | patients with adverse event | 21% |
| Cc1cc(-c2nnc(N)nc2-c2ccc(F)cc2)cc(Cl)n1 | measured: Hyperthyroidism | IO-naive colorectal cancer patients | dose not given, treatment-related, grade 2 | patients with immune-mediated AE | 0% |
| CCOc1c([C@H](C)n2nc(C)c3c(N)ncnc32)cc(Cl)c(F)c1[C@@H]1CNC(=O)C1 | measured: QRS ≤100 ms | previously treated B-cell malignancy | 15 mg once daily, baseline below thresholds | patients | 100% |
| CCO[C@H]1CCN(Cc2c(OC)cc(C)c3[nH]ccc23)[C@H](c2ccc(C(=O)O)cc2)C1 | measured: Headache | PNH patients, active haemolysis | 100 mg twice daily, extension phase | patients with adverse event | 20% |

Repeated from above:
| SMILES | test | test system | conditions | measurement | value |
| --- | --- | --- | --- | --- | --- |
| C=CC(=O)NC1CCN(c2ncc3ncnc(Nc4ccc(Oc5ccc6c(c5)ncn6C)c(C)c4)c3n2)CC1 |  | male patients | dose not given, on-treatment adverse events | patients with abdominal discomfort | 0% |
| C[C@@H](Nc1cc(F)cc(F)c1)c1cc(C(=O)N(C)C)cc2c(=O)cc(N3CCOCC3)oc12 | measured: Hypersensitivity | advanced solid tumour patients | dose not given, dose expansion | patients discontinuing for AE | 0% |
